Published values collected from several papers.
Several values in a cell are separate wells, animals, samples, runs or records. Numbers after ± are the reported error.

Structure (SMILES) | tested on | test | system | setting | how to read | endpoint | result
CCCCCCCC(=O)[O][Pt]([Cl])([Cl])[O]C(=O)CCCCCCC.N.N | A549/DDP cisplatin-resistant | MTT |  | 48 h, non-transfected |  | IC50 | 3.32 ± 2.27 µM
CC(C)=CC1OC(C)(C)C2C=C3C(=O)C(Cl)=CC(O)C3C3C(O)C4OC4C(=O)C132 (centres unmarked) | BGC-823 | cell growth or viability, MTS |  |  |  | IC50 | 3.21 µM
O=C1CCCC2=C1C(c1c[nH]c3ccccc13)c1cc(Br)ccc1O2 (centres unmarked) | 3T3-L1 | cell growth or viability, MTT |  | 72 h |  | IC50 | > 100 µg/mL
N#Cc1c(N)nc2c(c1-c1ccc(F)cc1)Cc1cc(O)ccc1-2 | HBP-ALL | cell viability, CellTiter-Glo |  |  | no inhibition at 100 µM | IC50 | 12.3 µM
O=C(Nc1ccc(OCc2ccccc2)cc1)OCCn1ncc2ccccc2c1=O | HEK293 reporter cells | γ-carboxylation, reporter |  | together with: vitamin K 10 µM |  | IC50 | 0.546 µM
CCOc1cncc(-c2ccc(NC(=O)C3(c4ccnc(NS(=O)(=O)C5CC5)n4)CCOCC3)nc2)n1 | lung cancer | cell viability, CellTiter-Glo | DMSO 0.1% | 72 h, line code 66 |  | IC50 | 0.044 µM
Cn1ncc(-c2ccc3c(=O)[nH]nc(CN)c3c2)c1-c1c(F)c(Cl)cc(OC2CC2)c1C#N | KYSE-70 | cell viability, inhibitor, CellTiter-Glo |  | 120 h, baseline-subtracted |  | IC50 | 2.12 µM
C=CC(=O)N1CCc2ccc(-n3c(=O)ccc4cnc5ccc(-c6cnn(C)c6)cc5c43)cc21 | CNE2Z | cell growth or viability |  |  |  | IC50 | 2.71 µM
C=CCOc1c(C)c(OC)c(C(=O)/C=C/c2ccccc2)c(OCC=C)c1C | FaDu | cell growth or viability, SRB |  | 72 h |  | IC50 | > 50 µM
C=C1C(=O)OC2C1CCC(C)(O)C13C=CC(C)(C21)C1(C3)C(=O)OC2C3C(C)=CC(=O)C3C(C)CC(OC(C)=O)C21 (centres unmarked) | AML12 | lipid accumulation, Nile Red staining |  | together with: palmitate/oleate |  | IC50 | 19.5 ± 2.31 µM
NC(=O)c1ccc(-c2ccccc2Cl)c2c3c([nH]c12)CCC(N)C3 (centres unmarked) | BGC-823 | cell growth or viability |  | 96 h |  | IC50 | 0.024 µM
COC(=O)N1c2ccc3c(nc(Cc4ccccc4)n3[C@@H]3CCC[C@@H](C(=O)O)C3)c2CC[C@@H]1C | MDA-MB-175-VII | cell growth or viability, ATP luminescence |  | 10 days |  | IC50 | 3.61 µM
CC(C)c1ccc(N(C)c2ccc3c(c2)OCC[C@H]3CNc2cnccc2C(=O)O)cc1 | SNUC2A | cell viability, CellTiter-Glo | large intestine | 7 days |  | IC50 | 0.0525 µM
O=C1CCC(N2C(=O)c3ccc(N4CCC(C(=O)N5CCC(CCN6CCC(CNC(=O)c7cccc(-c8noc(C(F)(F)F)n8)c7)(c7nc(-c8ccccc8)cs7)CC6)CC5)CC4)cc3C2=O)C(=O)N1 (centres unmarked) | JeKo-1 | cell growth or viability |  | 7 days |  | IC50 | 0.243 µM
O=C(OC[C@H]1O[C@@H](Oc2ccc(CO)cc2)[C@H](O)[C@@H](O)[C@@H]1O)c1ccc(O)cc1 | T47D breast cancer | cell viability, MTT | DMEM with 10% FBS | 48 h |  | IC50 | > 200 µM
O=C(CNc1cccc2ccccc12)N/N=C/c1ccc([N+](=O)[O-])o1 | Trypanosoma cruzi | reporter mRNA translation, inhibitor, measured: capped polyadenylated Renilla luciferase mRNA | cell-free extract | concentration not given | relative to: positive over negative control | translation activity | 86.3% and 103% and 78.5% and 85.9%

Structure (SMILES) | tested on | test | system | setting | how to read | endpoint | result
CC1(C)CC(=O)C2=C(C1)Oc1ccc3ccccc3c1C2c1c(C(=O)O)[nH]c2ccccc12 (centres unmarked) | 3T3-L1 | cell growth or viability, MTT |  | 72 h |  | IC50 | 19.4 µg/mL
COc1cc(-c2cc(C(C)=O)n3ccccc23)c(OC)cc1Cn1ccnc1 | Kasumi 1 | cell growth or viability, ATP luminescence |  |  |  | IC50 | 0.057 µM
CCCCCCCCCC(=O)[O][Pt]([Cl])([Cl])[O]C(=O)CCCCCCCCC.N.N | A549/DDP cisplatin-resistant | MTT |  | 48 h, non-transfected |  | IC50 | 6.94 ± 11.6 µM
O=C(NCCOCCOCCOCCNC(=O)c1cc2ccccc2c2ccccc12)c1cc(C(=O)N2CCNCCNCCNCC2)c(O)c(C(=O)N2CCNCCNCCNCC2)c1 | PK-59 | cell growth or viability, MTT |  | 24 h |  | IC50 | > 1000 µM
O=C1CCc2ccc(NS(=O)(=O)c3cccc(C(=O)c4ccccc4)c3)cc2N1 | BV-2 | PGE2 release, inhibitor |  | LPS-stimulated |  | IC50 | 0.006 µM
CCOC(=O)c1c(NC(=O)Cn2cnc([N+](=O)[O-])n2)sc2c1CCC(C)C2 (centres unmarked) | Trypanosoma cruzi | reporter mRNA translation, inhibitor, measured: capped polyadenylated Renilla luciferase mRNA | cell-free extract | concentration not given | relative to: positive over negative control | translation activity | 98.5% and 106% and 96.5% and 91%
CC[C@H]1CC[C@H]2[C@@H]3C[C@@H](O)[C@@]4(O)C[C@H](N)CC[C@]4(C)[C@H]3CC[C@]12C | BV-2 | nuclear intensity, high-content imaging |  | geometric mean |  | IC50 | 1.92 µM
CNS(=O)(=O)Nc1nccc(Cc2c(C)c3ccc(Oc4ncccc4F)cc3oc2=O)c1F | SHP77 | cell viability |  | 7 days |  | IC50 | 0.0047 µM
C=CC(=O)N1CCCC(n2c(=O)c3ncccc3n(Cc3ccc(Oc4ccccc4)cc3)c2=O)C1 (centres unmarked) | KARPAS-299 | cell growth or viability, MTT |  | 72 h |  | IC50 | 20 µM
O=C(CCNc1cccc2c1C(=O)N(C1CCC(=O)NC1=O)C2=O)NCCOCCOCCOCCN1CCC(CNC(=O)c2cccc(-c3noc(C(F)(F)F)n3)c2)(c2nc(-c3ccccc3)cs2)CC1 (centres unmarked) | JeKo-1 CRBN knockout | cell proliferation |  | 168 h |  | IC50 | 16.8 ± 3.37 µM
CC1(C)CC(=O)C2=C(C1)Oc1ccccc1C2Sc1ccccc1 (centres unmarked) | 3T3-L1 | cell growth or viability, MTT |  | 72 h |  | IC50 | 80.7 µg/mL
CCCCCCCCCCCCSCC(COCC(O)C[N+](C)(C)CCN)SCCCCCCCCCCCC (centres unmarked) | BHK-21 | cell growth or viability, MTT |  |  |  | IC50 | 144 µM
CCCCCC(=O)Oc1c(C)c(OC)c2c(c1C)OC(=O)[C@@H](CCCC)[C@]2(O)/C=C/c1ccccc1 (relative stereo) | FaDu | cell growth or viability, SRB |  | 72 h |  | IC50 | > 50 µM
CC(CCC(=O)[O][Pt]([NH2])([NH2])([OH])([Cl])[Cl])C1CCC2C3CCC4CC(O)CCC4(C)C3CCC12C (centres unmarked) | RWPE-1 normal prostate | cell viability, MTT |  | 72 h |  | IC50 | 10.1 ± 0.5 µM
Oc1cccc2c1[nH]c1c(C3=CC4(O)CCC=CCCCCN5CCC3C3(CC6C=CCCCCN6C43)C5)nccc12 (single isomer, unassigned; (+)) | LLC-PK11 | cell growth or viability, neutral red |  | 48 h |  | IC50 | 1.25 µg/mL
CCCC[C@H](NC(=O)CCCCCCCNC(=O)CN1CCN(CC(=O)O)CCN(CC(=O)O)CC1)C(=O)N[C@H]1CC(=O)NCCCC[C@@H](C(N)=O)NC(=O)[C@H](Cc2c[nH]c3ccccc23)NC(=O)[C@H](CCCNC(=N)N)NC(=O)[C@@H](Cc2ccccc2)NC(=O)[C@H](Cc2c[nH]cn2)NC1=O [technetium-99m labelled] |  |  | C57 mouse, blood | intravenous, 0.037 MBq, 2 h |  | tissue uptake | 0.15 ± 0.05 %ID/g

Some of these lines once more:
Structure (SMILES) | tested on | test | system | setting | how to read | endpoint | result
O=C(OC[C@H]1O[C@@H](Oc2ccc(CO)cc2)[C@H](O)[C@@H](O)[C@@H]1O)c1ccc(O)cc1 | T47D breast cancer | cell viability, MTT | DMEM with 10% FBS | 48 h |  | IC50 | > 200 µM
CC[C@H]1CC[C@H]2[C@@H]3C[C@@H](O)[C@@]4(O)C[C@H](N)CC[C@]4(C)[C@H]3CC[C@]12C | BV-2 | nuclear intensity, high-content imaging |  | geometric mean |  | IC50 | 1.92 µM
C=CC(=O)N1CCc2ccc(-n3c(=O)ccc4cnc5ccc(-c6cnn(C)c6)cc5c43)cc21 | CNE2Z | cell growth or viability |  |  |  | IC50 | 2.71 µM
